{"data": "Assay results of several laboratories", "note": "Lines come from different studies, so protocols differ. Values joined by “and” are separate records of one study, mostly repeats; a detail may differ."}
{"SMILES": "COc1cc(CCC[P+](c2ccccc2)(c2ccccc2)c2ccccc2)c(OC)c2c1OCO2.[I-]", "cell line": "NCI-H322M", "test": "SRB", "quantity": "GI50", "result": "-5.5 log M"}
{"SMILES": "CC(C)N1CCC(NC2CCN(c3cccc(-c4cc5cc(F)ccc5[nH]4)c3)CC2)CC1", "cell line": "HCC 2998", "quantity": "CC50", "result": "6.23 µM"}
{"SMILES": "Nc1ncnc2c1ncn2[C@@H]1O[C@@H]2COP(=O)(O)O[C@H]3[C@@H](O)[C@H](n4cnc5c(=O)[nH]cnc54)O[C@@H]3COP(=O)(O)O[C@H]2[C@H]1O", "cell line": "HFF-1", "test": "RNA sequencing Reactome analysis, refers to: Reactome R-HSA-8983711 OAS antiviral response", "conditions": "together with: West Nile virus infection", "scale": "baseline: West Nile virus infected cells, upregulated pathway", "quantity": "pathway fold enrichment", "result": 17.1}
{"SMILES": "CN1CCN(C2(CNC3CCN(c4cccc(-c5cc6cc(F)ccc6[nH]5)c4)CC3)CCC2)CC1", "cell line": "NCI-H23", "quantity": "GI50", "result": "1650 nM"}
{"SMILES": "Nc1ncc(-c2nc(N3CCOCC3)nc(N3CCOCC3)n2)c(C(F)F)n1", "cell line": "SK-N-FI", "conditions": "72 h", "quantity": "GI50", "result": "130 nM"}
{"SMILES": "COc1c(CCC[P+](c2ccccc2)(c2ccccc2)c2ccccc2)cc2c(c1OC)OCO2.[I-]", "cell line": "NCI-H23", "test": "SRB", "quantity": "TGI", "result": "-4.99 log M"}
{"SMILES": "CC1=C(O)C(=O)C=C2C1=CC=C1[C@@]2(C)CC[C@@]2(C)[C@@H]3C[C@](C)(C(=O)O)CC[C@]3(C)CC[C@]12C", "cell line": "HepG2", "test": "cell viability, CCK-8", "conditions": "2 µM", "scale": "higher = more viable cells", "quantity": "optical density", "result": "0.963 a.u. and 0.905 a.u. and 0.887 a.u. and 0.888 a.u. and 0.672 a.u. and 0.739 a.u."}
{"SMILES": "COc1ccc2c(c1)[nH]c1c(C)nccc12", "cell line": "DU-145", "test": "bisulfite pyrosequencing, refers to: RASSF1A promoter CpG site 13", "conditions": "concentration not given", "scale": "baseline: vehicle", "quantity": "methylation reduction", "result": "0.44%"}
{"SMILES": "CO[C@H]1C[C@H](O[C@H]2CC[C@]3(C)[C@H]4CC[C@]5(C)[C@@H](C6=CC(=O)OC6)CC[C@]5(O)[C@@H]4CC[C@]3(O)C2)O[C@H](C)[C@H]1O[C@@H]1O[C@H](CO)[C@@H](O)[C@H](O)[C@H]1O", "cell line": "PH5CH8", "test": "steatosis inhibition, high-content imaging", "conditions": "72 h, together with: sodium oleate 1 mM", "quantity": "EC50", "result": "96 nM"}
{"SMILES": "Cc1sc2c(c1C)C(c1ccc(Cl)cc1)=N[C@@H](CC(N)=O)c1nnc(C)n1-2", "cell line": "HBL-1", "conditions": "0.5 µM, 120 h", "quantity": "viability", "result": "21%"}
{"SMILES": "CN1CCN(S(=O)(=O)c2cc([N+](=O)[O-])ccc2N(CCOS(C)(=O)=O)CCOS(C)(=O)=O)CC1", "cell line": "sample DB T-ALL PDX cells", "test": "cell viability", "system": "ex vivo", "conditions": "48 h, together with: AKR1C3 inhibitor", "scale": "baseline: with inhibitor over alone", "quantity": "IC50 fold change", "result": 112}
{"SMILES": "COc1c(C)c2c(c(O)c1C/C=C(\\C)CCC(=O)O)C(=O)OC2", "cell line": "PLC-PRF-5", "test": "cell proliferation", "system": "liver cancer", "quantity": "IC50", "result": "1170 nM"}
{"SMILES": "COc1ccc([C@H]2c3[nH]c4ccc(Cl)cc4c3CCN2C(=O)Oc2ccc(Cl)cc2)cc1", "cell line": "dermal fibroblast and PBMC co-culture", "test": "refers to: soluble TNF-alpha", "conditions": "0.1 µM, 48 h", "quantity": "inhibition", "result": "35%"}
{"note": "For quick reference, copied from above:"}
{"SMILES": "Cc1sc2c(c1C)C(c1ccc(Cl)cc1)=N[C@@H](CC(N)=O)c1nnc(C)n1-2", "cell line": "HBL-1", "conditions": "0.5 µM, 120 h", "quantity": "viability", "result": "21%"}
